Assay results pooled from the literature.
Every numbered part comes from another study and shows a few of its results, in no order.

Set 1
Target: RNA binding protein fox-1 homolog 2, RRM domain, GST-SBP tag (RBFOX2, Homo sapiens, UniProt O43251-10, residues 100-194)
Method: RNA Bind-n-Seq
Molecule type: RNA
Matrix: in vitro
Tested at: 365 nM
Notes: natural RNA segment, single round, ends assumed
Reference: no-protein control
Reading: higher = stronger binding
`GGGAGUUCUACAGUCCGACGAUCUUGGUGGAUAUUUGGGGAAAGCAACACAAAUCUUAAAACUCACCCGUGAAGUGUGAGAAAACAAGGAGGGGAACAAAUGGGACUUACCAAGCAAGGUCAUUGUUGUGAAAUGGAAUUCUCGGGUGCCAA` — result for “RBNS enrichment (R)”: 0.673.
`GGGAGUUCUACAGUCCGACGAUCUGAGGAACUAUGUAAGUUCAGUGUCCAAGCAUUUGACUGACAUUUGUGCAGAGUUAGGUUCCAUCUCCAGCAUCACGCACGGGUCUUGUGAACACCGACAUCUUCAGUUUUGGAAUUCUCGGGUGCCAA` — result for “RBNS enrichment (R)”: 1.52.
`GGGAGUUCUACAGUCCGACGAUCGCAAUCAAGGGCCCGUUUGGAGAAGCAGAAAUGAUUCCCUCCAGUGCCCUGUCUACCUUCCCCAGGCAAGAAGAGCCAGGAGGGCACAGGGCUUGCACGUCACUCUGGUCUGGAAUUCUCGGGUGCCAA`: “RBNS enrichment (R)” 1.
`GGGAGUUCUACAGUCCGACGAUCUGUGAAGUAUUUUUUUAAAACAAAACAAAAAUUAUGGUCAUUAAAAAACUAGAGAAUUAGCCAUAUUAAGGAUUUUUCUUGACUGCAAAUUACUUCUAAAGAAUCAUCAGUGGAAUUCUCGGGUGCCAA` — result for “RBNS enrichment (R)”: 0.496.
Under “RBNS enrichment (R)”, `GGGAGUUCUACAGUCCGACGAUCUGCCUUUAUUUUAAAUACUGCAAUUUUACUUCUUCAUUCAUGUAUUUAUUAUUUUGCUUUUCUUGCUUAAGUAUAAUUGAAAAUAUUUGCAGGAACGCACAAUUCAUUUUUGGAAUUCUCGGGUGCCAA` is recorded as 1.23.

Set 2
Target: Replicase polyprotein 1ab, polymerase (rep, Severe acute respiratory syndrome coronavirus 2, UniProt P0DTD1)
Observed: enzyme activity
Action: inhibitor
Tested at: 20 µM
With Cc1c(N2C(=O)[C@@H]3[C@H](O)CCN3C2=O)ccc(C#N)c1Cl the inhibition was -8.14%.
NC(=O)c1ccccc1O has an inhibition of -2.76%.
For CCCCCCCCCCCCCCCC(=O)OCCC1CCN(CCCN2c3ccccc3Sc3ccc(S(=O)(=O)N(C)C)cc32)CC1, the inhibition was -1.67%.
Cc1c(C)c2c(c(C)c1O)CCC(C)(C(=O)O)O2 (stereo not drawn) gave an inhibition of 37.2%.
CCn1cc(C(=O)O)c(=O)c2ccc(-c3ccncc3)cc21 gave an inhibition of 3.62%.
The inhibition of CCN(CCCCOC(=O)c1ccc(OC)c(OC)c1)C(C)Cc1ccc(OC)cc1 (stereo not drawn) is reported as 12.6%.
With CCC(=O)O[C@]1(C(=O)COC(C)=O)CC[C@H]2[C@@H]3C[C@H](C)C4=CC(=O)C=C[C@]4(C)[C@H]3[C@@H](O)C[C@@]21C the inhibition was 0.27%.
Nc1nncs1 gave an inhibition of 1.23%.
For CN[C@@H]1[C@@H](O)[C@@H](O[C@@H]2[C@@H](O)[C@H](O[C@H]3O[C@H](CN)[C@@H](O)[C@H](O)[C@H]3O)[C@@H](N)C[C@H]2NC(=O)[C@@H](O)CN)OC[C@]1(C)O, the inhibition was -1.65%.
CCC1(CC)C(=O)C=CNC1=O gave an inhibition of 1.31%.
NC(=O)C[C@H](N)C(=O)O gave an inhibition of 0.57%.
The inhibition of C[C@H](NC[C@H](O)CP(=O)(O)Cc1ccccc1)c1ccc(Cl)c(Cl)c1 is reported as -0.64%.
OC[C@H]1O[C@@H](c2ccc(Cl)c(Cc3ccc(O[C@H]4CCOC4)cc3)c2)[C@H](O)[C@@H](O)[C@@H]1O has an inhibition of 0.73%.

Set 3
Cell line: HEK-293T
Observed: pseudovirus infection
Method: FDA-approved drug library screen
Organism: VSV pseudotyped with SARS-CoV-2 spike
Tested at: 10 µM
Time: 16 h
Reference: vehicle-treated
For CC(=O)NCCCS(=O)(=O)O, the GFP-positive cells was 105%.
For C[C@]12C=CC(=O)C=C1CC[C@@H]1[C@@H]2[C@@H](O)C[C@@]2(C)[C@H]1CC[C@]2(O)C(=O)CO, the GFP-positive cells was 74.4%.
With CCc1c(C)[nH]c2c1C(=O)C(CN1CCOCC1)CC2 (stereo not drawn) the GFP-positive cells was 70.8%.
CC(C)N1CCN(c2ccc(OCC3COC(Cn4cncn4)(c4ccc(Cl)cc4Cl)O3)cc2)CC1 (stereo not drawn) gave a GFP-positive cells of 63.7%.

Set 4
Target: Sal-like protein 4, full length isoform B (SALL4, Homo sapiens, UniProt Q9UJQ4-2, residues 1-616)
Method: universal PBM
Molecule type: double-stranded DNA, one strand shown
Matrix: in vitro
Tested at: not given
Notes: 8-mer, flanks averaged, mean of replicates
Reading: higher = stronger binding
With `CCAACACG` the E-score was -0.0193.
With `ACGGATCA` the E-score was -0.0736.
`GCCTCGGA` gave an E-score of -0.288.
With `ACAAGATC` the E-score was -0.0125.
The E-score of `AAGGGTTA` is reported as 0.105.
`TCTACCAA` gave an E-score of 0.149.
`AGGAGTTC` has an E-score of -0.103.
With `CACTAGCG` the E-score was -0.0777.

Some of these lines once more (set 4):
The E-score of `AAGGGTTA` is reported as 0.105.
`TCTACCAA` gave an E-score of 0.149.
`AGGAGTTC` has an E-score of -0.103.
With `CACTAGCG` the E-score was -0.0777.
